Experimental data pooled from the literature.
A part holds a random share of what one study measured. “And” joins repeats or separate records; there may be more than shown.
UniProt P51451, sequence (whole entry, looked up): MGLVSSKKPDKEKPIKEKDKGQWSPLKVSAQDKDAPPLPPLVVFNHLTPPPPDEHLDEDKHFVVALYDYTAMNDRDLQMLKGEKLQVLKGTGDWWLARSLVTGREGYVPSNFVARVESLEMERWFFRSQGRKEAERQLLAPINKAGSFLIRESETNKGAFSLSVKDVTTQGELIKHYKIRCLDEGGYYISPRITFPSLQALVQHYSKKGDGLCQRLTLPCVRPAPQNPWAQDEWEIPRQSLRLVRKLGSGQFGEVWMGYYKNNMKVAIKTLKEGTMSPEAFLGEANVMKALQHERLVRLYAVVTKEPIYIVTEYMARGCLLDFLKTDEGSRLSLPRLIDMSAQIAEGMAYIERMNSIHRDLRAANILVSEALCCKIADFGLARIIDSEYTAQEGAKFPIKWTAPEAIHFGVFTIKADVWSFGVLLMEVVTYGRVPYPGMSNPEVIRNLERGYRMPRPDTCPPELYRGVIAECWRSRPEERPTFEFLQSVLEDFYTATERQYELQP
UniProt Q8IVH8, sequence (whole entry, looked up): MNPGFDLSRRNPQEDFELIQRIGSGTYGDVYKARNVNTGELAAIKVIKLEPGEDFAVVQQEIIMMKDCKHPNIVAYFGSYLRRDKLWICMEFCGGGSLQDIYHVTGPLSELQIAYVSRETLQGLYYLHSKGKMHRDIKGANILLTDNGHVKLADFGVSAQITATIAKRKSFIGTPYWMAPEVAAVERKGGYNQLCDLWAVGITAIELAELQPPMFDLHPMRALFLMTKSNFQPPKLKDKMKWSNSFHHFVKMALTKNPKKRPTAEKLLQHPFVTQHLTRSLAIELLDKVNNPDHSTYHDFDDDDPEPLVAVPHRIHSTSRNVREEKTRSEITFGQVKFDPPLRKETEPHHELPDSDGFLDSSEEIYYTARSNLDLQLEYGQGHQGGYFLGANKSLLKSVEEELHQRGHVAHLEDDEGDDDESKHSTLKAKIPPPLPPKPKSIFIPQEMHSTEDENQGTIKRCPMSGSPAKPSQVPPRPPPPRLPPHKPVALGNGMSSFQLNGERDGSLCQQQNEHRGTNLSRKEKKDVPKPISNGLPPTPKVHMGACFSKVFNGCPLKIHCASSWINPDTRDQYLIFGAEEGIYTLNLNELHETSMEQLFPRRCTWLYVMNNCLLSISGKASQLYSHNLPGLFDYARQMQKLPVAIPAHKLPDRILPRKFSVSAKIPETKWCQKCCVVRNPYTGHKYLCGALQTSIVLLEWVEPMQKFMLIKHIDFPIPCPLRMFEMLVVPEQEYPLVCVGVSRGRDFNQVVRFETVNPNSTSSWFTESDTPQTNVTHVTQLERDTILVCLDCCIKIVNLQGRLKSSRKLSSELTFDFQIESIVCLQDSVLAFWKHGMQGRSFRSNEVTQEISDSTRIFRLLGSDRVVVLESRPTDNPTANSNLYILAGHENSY
UniProt O43318, sequence (whole entry, looked up): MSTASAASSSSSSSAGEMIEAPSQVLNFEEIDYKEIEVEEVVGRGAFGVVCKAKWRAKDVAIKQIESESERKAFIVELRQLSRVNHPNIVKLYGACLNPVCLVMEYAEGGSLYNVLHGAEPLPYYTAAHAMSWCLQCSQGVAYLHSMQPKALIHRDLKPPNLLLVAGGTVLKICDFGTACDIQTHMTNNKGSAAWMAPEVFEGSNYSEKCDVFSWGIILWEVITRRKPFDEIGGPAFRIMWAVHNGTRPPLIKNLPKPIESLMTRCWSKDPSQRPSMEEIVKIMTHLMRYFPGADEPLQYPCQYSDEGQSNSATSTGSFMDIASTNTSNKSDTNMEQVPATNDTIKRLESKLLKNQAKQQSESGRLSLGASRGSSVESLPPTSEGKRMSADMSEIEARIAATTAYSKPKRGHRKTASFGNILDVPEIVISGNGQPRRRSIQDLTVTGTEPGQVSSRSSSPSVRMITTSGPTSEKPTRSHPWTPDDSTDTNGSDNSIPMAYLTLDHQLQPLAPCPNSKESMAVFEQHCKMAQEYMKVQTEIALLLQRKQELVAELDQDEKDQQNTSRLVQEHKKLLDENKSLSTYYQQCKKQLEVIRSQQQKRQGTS
UniProt P49841, sequence (whole entry, looked up): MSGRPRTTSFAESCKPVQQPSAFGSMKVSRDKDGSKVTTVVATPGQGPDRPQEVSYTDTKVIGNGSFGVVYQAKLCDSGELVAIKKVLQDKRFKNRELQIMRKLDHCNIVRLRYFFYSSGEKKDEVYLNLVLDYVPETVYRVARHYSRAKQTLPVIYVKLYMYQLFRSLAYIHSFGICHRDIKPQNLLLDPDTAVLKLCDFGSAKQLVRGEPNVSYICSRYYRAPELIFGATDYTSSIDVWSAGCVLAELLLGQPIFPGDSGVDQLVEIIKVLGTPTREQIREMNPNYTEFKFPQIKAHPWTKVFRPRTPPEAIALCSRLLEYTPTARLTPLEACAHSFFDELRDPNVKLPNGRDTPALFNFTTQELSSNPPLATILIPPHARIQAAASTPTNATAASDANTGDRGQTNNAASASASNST
UniProt Q9Y5S2, sequence (whole entry, looked up): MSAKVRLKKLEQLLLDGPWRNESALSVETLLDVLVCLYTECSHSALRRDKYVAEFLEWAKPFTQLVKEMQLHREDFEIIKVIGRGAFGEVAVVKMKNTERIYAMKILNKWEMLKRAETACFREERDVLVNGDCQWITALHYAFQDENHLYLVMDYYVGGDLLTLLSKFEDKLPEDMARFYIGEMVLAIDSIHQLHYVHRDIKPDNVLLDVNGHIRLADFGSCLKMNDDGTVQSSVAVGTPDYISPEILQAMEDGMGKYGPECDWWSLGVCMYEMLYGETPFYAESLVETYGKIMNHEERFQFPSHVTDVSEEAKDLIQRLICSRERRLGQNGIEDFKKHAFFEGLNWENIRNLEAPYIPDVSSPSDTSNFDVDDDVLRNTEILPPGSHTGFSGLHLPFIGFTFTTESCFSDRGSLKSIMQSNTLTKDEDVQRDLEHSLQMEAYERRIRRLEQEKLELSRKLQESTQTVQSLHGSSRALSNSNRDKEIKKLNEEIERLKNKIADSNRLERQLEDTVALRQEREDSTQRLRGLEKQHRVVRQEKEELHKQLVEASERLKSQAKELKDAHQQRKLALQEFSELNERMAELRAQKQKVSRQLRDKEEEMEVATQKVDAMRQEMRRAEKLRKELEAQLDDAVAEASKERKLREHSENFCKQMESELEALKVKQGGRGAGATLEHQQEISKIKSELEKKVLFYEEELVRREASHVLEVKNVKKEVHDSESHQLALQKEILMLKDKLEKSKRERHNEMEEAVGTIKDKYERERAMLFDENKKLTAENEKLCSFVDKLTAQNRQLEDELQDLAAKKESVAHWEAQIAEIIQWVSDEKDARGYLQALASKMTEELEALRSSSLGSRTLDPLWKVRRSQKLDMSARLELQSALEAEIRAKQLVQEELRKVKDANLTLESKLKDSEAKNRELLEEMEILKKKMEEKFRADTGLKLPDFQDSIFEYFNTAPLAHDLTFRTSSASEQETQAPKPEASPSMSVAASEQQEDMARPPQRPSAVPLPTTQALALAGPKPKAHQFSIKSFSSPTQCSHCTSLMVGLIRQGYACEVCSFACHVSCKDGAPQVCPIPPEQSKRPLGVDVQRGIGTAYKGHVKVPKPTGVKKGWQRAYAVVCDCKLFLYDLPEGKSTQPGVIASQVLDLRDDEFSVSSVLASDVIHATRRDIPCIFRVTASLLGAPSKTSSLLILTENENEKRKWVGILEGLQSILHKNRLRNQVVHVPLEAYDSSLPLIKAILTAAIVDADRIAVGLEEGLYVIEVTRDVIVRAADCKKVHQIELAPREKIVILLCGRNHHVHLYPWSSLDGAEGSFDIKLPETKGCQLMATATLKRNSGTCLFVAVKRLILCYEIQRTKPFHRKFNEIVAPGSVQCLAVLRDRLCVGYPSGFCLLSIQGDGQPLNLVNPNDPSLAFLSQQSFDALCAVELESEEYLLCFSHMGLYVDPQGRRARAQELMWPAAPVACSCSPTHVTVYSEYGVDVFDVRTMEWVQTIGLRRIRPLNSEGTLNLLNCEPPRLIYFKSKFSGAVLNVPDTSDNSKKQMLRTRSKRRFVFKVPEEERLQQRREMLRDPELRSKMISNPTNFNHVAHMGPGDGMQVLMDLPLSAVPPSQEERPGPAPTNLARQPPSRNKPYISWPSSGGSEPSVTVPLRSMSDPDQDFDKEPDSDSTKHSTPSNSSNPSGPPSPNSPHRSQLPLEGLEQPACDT
UniProt P15735, sequence (whole entry, looked up): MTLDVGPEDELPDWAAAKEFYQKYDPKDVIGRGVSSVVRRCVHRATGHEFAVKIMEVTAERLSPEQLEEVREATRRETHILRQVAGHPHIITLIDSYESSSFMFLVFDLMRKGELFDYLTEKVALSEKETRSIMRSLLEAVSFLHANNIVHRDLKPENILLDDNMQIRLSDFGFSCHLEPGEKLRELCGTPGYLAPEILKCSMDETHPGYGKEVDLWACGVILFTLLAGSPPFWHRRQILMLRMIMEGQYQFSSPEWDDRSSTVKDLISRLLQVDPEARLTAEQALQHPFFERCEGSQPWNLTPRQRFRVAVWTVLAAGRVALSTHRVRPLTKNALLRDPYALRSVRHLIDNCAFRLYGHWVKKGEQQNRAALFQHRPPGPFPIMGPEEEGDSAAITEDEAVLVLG
UniProt P48729, sequence (whole entry, looked up): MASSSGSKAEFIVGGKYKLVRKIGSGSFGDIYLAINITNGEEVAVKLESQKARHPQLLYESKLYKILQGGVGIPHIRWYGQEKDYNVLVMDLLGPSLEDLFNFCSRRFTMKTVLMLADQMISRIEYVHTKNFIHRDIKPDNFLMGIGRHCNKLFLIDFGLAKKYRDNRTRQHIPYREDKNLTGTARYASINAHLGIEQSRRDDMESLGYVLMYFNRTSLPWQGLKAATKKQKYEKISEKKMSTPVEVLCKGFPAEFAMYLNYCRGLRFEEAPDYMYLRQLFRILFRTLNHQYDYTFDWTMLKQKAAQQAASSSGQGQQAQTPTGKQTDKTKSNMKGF

Block 1 — cell line: A-375; concentration: 100 µM; time: 18 h
CN1CCN2c3ncccc3Cc3ccccc3C2C1 (centres unmarked) has a viability of 96.6%.
Cc1c(O)c(=O)n(-c2ccccc2)n1C gave a viability of 88.9%.
CN(C)CCCN1c2ccccc2Sc2ccccc21 gave a viability of 7.89%.
Clc1ccc(C(Cn2ccnc2)OCc2csc3c(Cl)cccc23)c(Cl)c1 (centres unmarked) gave a viability of 10.4%.
CC(=O)Nc1ccc(O)cc1 has a viability of 107%.
With CCc1cc2c(cc1N1CCC(N3CCOCC3)CC1)C(C)(C)c1[nH]c3cc(C#N)ccc3c1C2=O the viability was 12.9%.

Block 2 — target: panel of 300 human kinases; concentration: 0.5 µM; direction: higher = more selective
The Gini score of Cc1cccc(-c2[nH]c(C(C)(C)C)nc2-c2ccc3c(c2)OCO3)n1 is reported as 0.67.
N#CC(C#N)=C(N)/C(C#N)=C/c1ccc(O)cc1 gave a Gini score of 0.61.
Cn1sc(=O)n(Cc2ccccc2)c1=O gave a Gini score of 0.69.
O=C(c1ccccc1)c1ccc(N2CCOCC2)cc1O gave a Gini score of 0.72.
With C#Cc1cccc(Nc2ncnc3cc(OCCOC)c(OCCOC)cc23)c1 the Gini score was 0.7.

Block 3 — read-out: cell-free assay; technique: competition with immobilised ligand; concentration: 1 µM
SMILES: CCCOc1ccc([C@@H]2[C@@H](C(=O)O)[C@H](c3ccc4c(c3)OCO4)CN2CC(=O)Nc2c(CC)cccc2CC)cc1
TSSK1B (Homo sapiens, UniProt Q9BXA7) — remaining binding: 100%.
For MAP3K7 (Homo sapiens, UniProt O43318): remaining binding read 97%.
CSNK1A1 (Homo sapiens, UniProt P48729) — remaining binding: 73%.
It gave 100% for remaining binding (STK25 (Homo sapiens, UniProt O00506)).
PHKG2 (Homo sapiens, UniProt P15735) — remaining binding: 74%.
MET (Homo sapiens, UniProt P08581) — remaining binding: 92%.
The remaining binding was 100% (MAP4K3 (Homo sapiens, UniProt Q8IVH8)).
For CDC42BPB (Homo sapiens, UniProt Q9Y5S2): remaining binding read 97%.
The remaining binding was 99% (Tyrosine-protein kinase ABL1, phosphorylated (ABL1, Homo sapiens, UniProt P00519, Q252H)).
It gave 99% for remaining binding (DYRK1B (Homo sapiens, UniProt Q9Y463)).
NEK1 (Homo sapiens, UniProt Q96PY6) — remaining binding: 100%.
It gave 96% for remaining binding (BLK (Homo sapiens, UniProt P51451)).
For GSK3B (Homo sapiens, UniProt P49841): remaining binding read 100%.
IGF1R (Homo sapiens, UniProt P08069) — remaining binding: 88%.
The remaining binding was 83% (CSNK1D (Homo sapiens, UniProt P48730)).

Block 4 — cell line: human islets; technique: qPCR; concentration: concentration not given; setting: unit not given
Compound: O=C(COc1ccccc1P(=O)(O)O)NCC(F)(F)c1cccc(F)c1
measured: BRAF; together with: glucolipotoxic conditions; relative to: low glucose control — mRNA level: 0.881 and 0.936 and 2.18 and 1.15.
It gave 6.1 and 2.85 for mRNA level (measured: INS; together with: 20 mM glucose plus 500 µM palmitate; relative to: low glucose).
measured: RELA; together with: glucolipotoxic conditions; relative to: low glucose control — mRNA level: 1.19 and 1.05 and 1.71 and 0.664.
For measured: USP8; together with: low glucose; relative to: low glucose control: mRNA level read 0.961 and 2.27 and 1.12 and 0.934.

Mixed results
The logD of CCOC(=O)[C@@H]1CSCC(=O)N[C@H](CC)C(=O)N(C)[C@@H](C)C(=O)N[C@@H](CC(C)C)C(=O)N2CCC[C@@H]2C(=O)N(CC)CC(=O)N[C@@H](CC(C)C)C(=O)N(C)[C@@H](C)C(=O)N[C@@H](CC(C)C)C(=O)N1C is reported as 0.894 (hydrocarbon/water).
For c1ccc2c(-c3nn4c(-c5ccncc5)nnc4s3)c[nH]c2c1, the remaining activity was 1.35 and 1.63 and 1.6 and 1.51 and 1.61 and 1.56 and 1.45 (α-galactosidase (human, wild type); healthy dermal fibroblasts; 0.5 µM, unit not given; relative to: DMSO).

Excerpt of the above (block 3):
CSNK1A1 (Homo sapiens, UniProt P48729) — remaining binding: 73%.
For MAP3K7 (Homo sapiens, UniProt O43318): remaining binding read 97%.
It gave 99% for remaining binding (DYRK1B (Homo sapiens, UniProt Q9Y463)).
